Assay results from different studies.
A part holds a random share of what one study measured. “And” joins repeats or separate records; there may be more than shown.
Sequence of UniProt Q13163 (whole entry, looked up): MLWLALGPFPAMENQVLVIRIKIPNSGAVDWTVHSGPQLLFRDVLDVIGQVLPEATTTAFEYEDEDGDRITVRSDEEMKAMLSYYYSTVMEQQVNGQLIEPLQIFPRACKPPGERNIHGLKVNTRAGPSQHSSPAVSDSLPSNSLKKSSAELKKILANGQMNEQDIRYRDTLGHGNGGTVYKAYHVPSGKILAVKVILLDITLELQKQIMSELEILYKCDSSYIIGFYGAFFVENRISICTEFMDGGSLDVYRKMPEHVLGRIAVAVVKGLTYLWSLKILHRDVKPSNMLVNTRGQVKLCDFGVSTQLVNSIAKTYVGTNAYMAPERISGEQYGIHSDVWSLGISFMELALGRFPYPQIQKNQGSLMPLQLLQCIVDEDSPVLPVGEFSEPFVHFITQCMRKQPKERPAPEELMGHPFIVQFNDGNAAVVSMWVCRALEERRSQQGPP
Sequence of UniProt O96013 (whole entry, looked up): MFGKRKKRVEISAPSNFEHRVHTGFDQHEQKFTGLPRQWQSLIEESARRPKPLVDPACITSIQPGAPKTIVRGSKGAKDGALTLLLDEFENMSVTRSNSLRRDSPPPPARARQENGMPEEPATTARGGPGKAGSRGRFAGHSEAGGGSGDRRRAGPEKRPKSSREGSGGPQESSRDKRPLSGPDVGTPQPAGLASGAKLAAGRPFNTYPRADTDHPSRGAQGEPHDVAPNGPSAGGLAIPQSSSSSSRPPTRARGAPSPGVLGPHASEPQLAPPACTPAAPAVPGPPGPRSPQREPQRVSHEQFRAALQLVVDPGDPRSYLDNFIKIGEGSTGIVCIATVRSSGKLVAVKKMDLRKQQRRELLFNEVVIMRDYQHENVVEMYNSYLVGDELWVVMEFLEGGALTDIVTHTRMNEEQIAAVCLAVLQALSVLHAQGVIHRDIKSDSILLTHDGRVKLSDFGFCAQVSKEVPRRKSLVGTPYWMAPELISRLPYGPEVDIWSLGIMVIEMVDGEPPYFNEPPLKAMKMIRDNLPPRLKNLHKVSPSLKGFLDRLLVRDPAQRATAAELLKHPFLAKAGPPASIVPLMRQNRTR
Sequence of UniProt P57058 (whole entry, looked up): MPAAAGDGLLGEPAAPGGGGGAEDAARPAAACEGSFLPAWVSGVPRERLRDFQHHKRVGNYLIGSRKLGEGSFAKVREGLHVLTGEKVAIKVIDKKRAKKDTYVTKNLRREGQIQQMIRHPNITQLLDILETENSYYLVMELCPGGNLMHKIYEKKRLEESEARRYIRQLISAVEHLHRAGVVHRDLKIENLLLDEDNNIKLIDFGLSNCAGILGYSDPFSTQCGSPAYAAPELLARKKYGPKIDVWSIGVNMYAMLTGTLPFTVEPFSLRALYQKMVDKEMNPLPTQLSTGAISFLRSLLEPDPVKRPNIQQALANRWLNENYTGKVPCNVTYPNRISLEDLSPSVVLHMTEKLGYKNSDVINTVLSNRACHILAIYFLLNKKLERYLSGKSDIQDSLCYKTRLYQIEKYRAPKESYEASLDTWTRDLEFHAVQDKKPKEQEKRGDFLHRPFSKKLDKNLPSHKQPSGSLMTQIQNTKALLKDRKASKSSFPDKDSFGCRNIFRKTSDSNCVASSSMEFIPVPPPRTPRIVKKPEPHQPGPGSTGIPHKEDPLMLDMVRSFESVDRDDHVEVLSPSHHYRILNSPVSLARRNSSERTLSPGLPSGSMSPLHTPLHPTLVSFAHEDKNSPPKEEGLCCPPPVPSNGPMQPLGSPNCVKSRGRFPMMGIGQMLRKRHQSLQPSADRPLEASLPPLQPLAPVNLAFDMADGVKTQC
Sequence of UniProt P30530 (whole entry, looked up): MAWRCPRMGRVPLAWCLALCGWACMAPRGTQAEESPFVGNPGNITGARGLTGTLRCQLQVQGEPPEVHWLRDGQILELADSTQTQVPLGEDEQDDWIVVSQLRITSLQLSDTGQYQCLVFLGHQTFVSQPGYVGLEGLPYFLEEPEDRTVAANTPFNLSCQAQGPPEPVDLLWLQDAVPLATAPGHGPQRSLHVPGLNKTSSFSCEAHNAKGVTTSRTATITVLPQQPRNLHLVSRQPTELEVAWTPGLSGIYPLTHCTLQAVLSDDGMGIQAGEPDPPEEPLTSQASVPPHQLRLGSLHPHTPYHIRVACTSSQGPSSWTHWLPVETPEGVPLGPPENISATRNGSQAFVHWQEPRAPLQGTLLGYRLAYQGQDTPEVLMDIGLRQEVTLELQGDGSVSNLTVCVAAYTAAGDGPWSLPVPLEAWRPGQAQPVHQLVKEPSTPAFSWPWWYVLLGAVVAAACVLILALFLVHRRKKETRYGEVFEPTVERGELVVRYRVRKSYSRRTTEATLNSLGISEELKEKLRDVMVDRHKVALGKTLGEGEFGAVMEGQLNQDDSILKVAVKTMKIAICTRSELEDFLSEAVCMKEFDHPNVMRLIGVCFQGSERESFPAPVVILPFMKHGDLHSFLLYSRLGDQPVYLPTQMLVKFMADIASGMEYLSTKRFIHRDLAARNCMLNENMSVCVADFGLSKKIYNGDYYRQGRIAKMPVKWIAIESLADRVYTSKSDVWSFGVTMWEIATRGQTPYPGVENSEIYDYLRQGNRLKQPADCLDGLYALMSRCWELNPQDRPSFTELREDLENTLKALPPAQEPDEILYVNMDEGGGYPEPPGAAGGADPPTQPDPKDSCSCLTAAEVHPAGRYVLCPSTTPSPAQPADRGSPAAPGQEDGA
Sequence of UniProt P42336 (whole entry, looked up): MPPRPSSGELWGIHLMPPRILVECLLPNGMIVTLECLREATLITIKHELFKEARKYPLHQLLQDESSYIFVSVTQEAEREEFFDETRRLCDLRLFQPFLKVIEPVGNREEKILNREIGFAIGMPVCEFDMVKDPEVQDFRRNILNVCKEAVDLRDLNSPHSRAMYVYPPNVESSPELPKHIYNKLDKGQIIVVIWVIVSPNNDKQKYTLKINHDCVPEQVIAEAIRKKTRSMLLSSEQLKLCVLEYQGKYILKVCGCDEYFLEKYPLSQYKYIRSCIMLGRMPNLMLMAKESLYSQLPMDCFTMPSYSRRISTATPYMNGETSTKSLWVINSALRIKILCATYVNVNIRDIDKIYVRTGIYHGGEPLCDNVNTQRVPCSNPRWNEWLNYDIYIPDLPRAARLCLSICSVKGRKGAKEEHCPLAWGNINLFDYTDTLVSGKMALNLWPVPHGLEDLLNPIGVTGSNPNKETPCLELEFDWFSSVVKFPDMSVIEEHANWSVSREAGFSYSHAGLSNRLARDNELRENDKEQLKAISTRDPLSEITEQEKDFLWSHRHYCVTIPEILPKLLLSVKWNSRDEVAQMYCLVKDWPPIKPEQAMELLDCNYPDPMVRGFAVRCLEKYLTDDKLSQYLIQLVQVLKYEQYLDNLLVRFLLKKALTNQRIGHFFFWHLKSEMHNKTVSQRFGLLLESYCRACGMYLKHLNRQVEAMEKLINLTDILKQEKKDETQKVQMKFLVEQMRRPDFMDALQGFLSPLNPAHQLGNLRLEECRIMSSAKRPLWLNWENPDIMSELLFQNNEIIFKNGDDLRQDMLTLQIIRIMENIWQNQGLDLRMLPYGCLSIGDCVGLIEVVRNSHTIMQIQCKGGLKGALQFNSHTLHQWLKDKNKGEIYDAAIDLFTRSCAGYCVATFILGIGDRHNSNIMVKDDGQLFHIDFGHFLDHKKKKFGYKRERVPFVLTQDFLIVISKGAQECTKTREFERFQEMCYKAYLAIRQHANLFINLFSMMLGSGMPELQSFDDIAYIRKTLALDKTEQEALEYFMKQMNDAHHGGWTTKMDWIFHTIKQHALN
Sequence of UniProt P51617 (whole entry, looked up): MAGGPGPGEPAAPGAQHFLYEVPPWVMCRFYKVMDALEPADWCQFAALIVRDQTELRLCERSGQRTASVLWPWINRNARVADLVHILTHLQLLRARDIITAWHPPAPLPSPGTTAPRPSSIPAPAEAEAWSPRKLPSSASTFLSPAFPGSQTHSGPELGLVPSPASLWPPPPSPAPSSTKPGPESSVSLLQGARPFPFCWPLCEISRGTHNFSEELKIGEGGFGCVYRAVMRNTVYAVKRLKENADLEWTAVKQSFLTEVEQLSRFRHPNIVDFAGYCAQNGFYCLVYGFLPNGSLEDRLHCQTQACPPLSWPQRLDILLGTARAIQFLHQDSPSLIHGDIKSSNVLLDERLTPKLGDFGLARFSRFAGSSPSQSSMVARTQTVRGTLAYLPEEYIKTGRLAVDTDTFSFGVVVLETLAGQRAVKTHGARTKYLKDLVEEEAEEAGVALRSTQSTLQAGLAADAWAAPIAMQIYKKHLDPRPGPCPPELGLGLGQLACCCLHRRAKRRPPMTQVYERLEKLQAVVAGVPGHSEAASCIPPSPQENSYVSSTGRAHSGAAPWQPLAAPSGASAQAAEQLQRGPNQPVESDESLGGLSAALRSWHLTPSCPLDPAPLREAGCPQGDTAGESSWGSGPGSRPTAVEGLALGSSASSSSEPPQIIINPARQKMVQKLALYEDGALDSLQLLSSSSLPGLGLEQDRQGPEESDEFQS
Sequence of UniProt P32298 (whole entry, looked up): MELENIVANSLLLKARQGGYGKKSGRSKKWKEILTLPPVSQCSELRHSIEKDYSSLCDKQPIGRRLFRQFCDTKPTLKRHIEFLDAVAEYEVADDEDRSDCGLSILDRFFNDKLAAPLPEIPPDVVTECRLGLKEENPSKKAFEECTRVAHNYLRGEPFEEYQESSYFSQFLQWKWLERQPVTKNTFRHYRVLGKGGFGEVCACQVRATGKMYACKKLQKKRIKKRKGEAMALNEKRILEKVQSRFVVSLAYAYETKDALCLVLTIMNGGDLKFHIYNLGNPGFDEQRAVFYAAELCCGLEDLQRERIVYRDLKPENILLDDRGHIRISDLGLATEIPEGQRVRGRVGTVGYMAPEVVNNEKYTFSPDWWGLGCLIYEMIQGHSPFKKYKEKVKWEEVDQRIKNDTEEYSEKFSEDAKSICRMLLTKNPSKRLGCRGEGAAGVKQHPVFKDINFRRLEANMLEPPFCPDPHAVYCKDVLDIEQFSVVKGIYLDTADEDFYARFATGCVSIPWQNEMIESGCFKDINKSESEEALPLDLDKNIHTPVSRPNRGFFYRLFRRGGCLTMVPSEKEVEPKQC

Study 1
SMILES: Cn1nc(C(F)(F)F)cc1-c1cnc(N2CCc3cc(S(=O)(=O)Nc4c(F)cc(Cl)cc4F)cc(N4CCCC4=O)c32)nc1
Effect on: cell-free assay
Technique: competition with immobilised ligand
Tested at: 1 µM
| target | remaining binding [%] |
| --- | --- |
| IRAK1 (Homo sapiens, UniProt P51617) | 72 |
| AXL (Homo sapiens, UniProt P30530) | 93 |
| PAK4 (Homo sapiens, UniProt O96013) | 100 |
| HUNK (Homo sapiens, UniProt P57058) | 68 |
| MAP2K5 (Homo sapiens, UniProt Q13163) | 83 |
| MAP3K9 (Homo sapiens, UniProt P80192) | 100 |
| GRK4 (Homo sapiens, UniProt P32298) | 100 |
| PIK3CA (Homo sapiens, UniProt P42336) | 100 |

Study 2
Target: Activin receptor type-1 (ACVR1, Homo sapiens, UniProt Q04771)
Effect on: enzyme activity
Action: inhibitor
Tested at: 0.5 µM
Relative to: control
Target sequence (Q04771 1-509): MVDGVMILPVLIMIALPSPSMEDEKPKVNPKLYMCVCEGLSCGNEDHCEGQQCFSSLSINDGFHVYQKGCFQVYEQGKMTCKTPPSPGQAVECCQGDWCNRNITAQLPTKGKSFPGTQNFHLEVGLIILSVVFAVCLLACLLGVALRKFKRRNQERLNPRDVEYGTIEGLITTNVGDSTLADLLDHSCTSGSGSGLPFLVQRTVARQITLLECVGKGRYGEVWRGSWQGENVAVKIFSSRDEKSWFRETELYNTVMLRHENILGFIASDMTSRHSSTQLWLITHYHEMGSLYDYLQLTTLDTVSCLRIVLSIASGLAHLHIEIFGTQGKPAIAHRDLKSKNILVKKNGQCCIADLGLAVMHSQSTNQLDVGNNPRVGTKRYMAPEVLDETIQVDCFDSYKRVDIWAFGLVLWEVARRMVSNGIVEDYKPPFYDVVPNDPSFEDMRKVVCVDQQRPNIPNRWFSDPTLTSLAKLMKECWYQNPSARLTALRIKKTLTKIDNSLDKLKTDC
| SMILES | remaining activity |
| --- | --- |
| O=C1NC(=O)C(c2cn(CCCn3ccnc3)c3ccccc23)=C1Nc1ccccc1 | 94.4% |
| Nc1ncnc2n[nH]c(Nc3ccc(F)cc3)c12 | 127% |
| O=C1NC(=O)C(c2cn(CCCO)c3ncccc23)=C1c1cnccn1 | 97% |
| Cc1ccc(NC(=O)c2ccc(CN3CCN(C)CC3)cc2)cc1Nc1nc(-c2cccnc2)cs1 | 101% |
| OCC(O)CCON=C1C(c2c(O)[nH]c3ccccc23)=Nc2ccccc21 (stereo not shown) | 199% |
| Nc1[nH]nc2nc3ccccc3nc12 | 94.3% |
| CCOC(=O)c1c(C)[nH]c(/C=C2\C(=O)Nc3ccccc32)c1C | 99.8% |
| Cn1sc(=O)n(Cc2ccccc2)c1=O | 102% |
| CO[C@H]1C[C@@H]2CC[C@@H](C)[C@@](O)(O2)C(=O)C(=O)N2CCCC[C@H]2C(=O)O[C@H]([C@H](C)C[C@@H]2CC[C@@H](O)[C@H](OC)C2)CC(=O)[C@H](C)/C=C(\C)[C@@H](O)[C@@H](OC)C(=O)[C@H](C)C[C@H](C)/C=C/C=C/C=C/1C | 94.6% |
| COc1ccc(OC)c2c(=S)c3ccccc3[nH]c12 | 99.2% |
| O=c1c2ccccc2[nH]c(=S)n1CCN1CCC(=C(c2ccc(F)cc2)c2ccc(F)cc2)CC1 | 107% |
| O=C(O)c1ccc2c3c1cccc3c(=O)n1c3ccccc3nc21 | 91.1% |
| Cc1ccc(Nc2nccc(N(C)c3ccc4c(C)n(C)nc4c3)n2)cc1S(N)(=O)=O | 104% |
| O=S(=O)(c1cccc2cnccc12)N1CCCNCC1 | 96.5% |
| COc1cc2ncnc(Nc3ccc(F)c(Cl)c3)c2cc1OCCCN1CCOCC1 | 106% |
| COc1ccc(CNC(=O)Nc2ncc([N+](=O)[O-])s2)cc1 | 99.5% |

Study 3
Cell line: HaCaT
Tested at: 100 µM
Time: 36 h
| SMILES | viability |
| --- | --- |
| CC(=O)c1ccc2c(c1)N(CCCN1CCC(CCO)CC1)c1ccccc1S2 | 6.34% |
| Nc1nc2[nH]cc(CCc3ccc(C(=O)O)cc3)c2c(=O)[nH]1 | 49.8% |
| NC(=O)Cc1cccc(C(=O)c2ccccc2)c1N | 83.4% |
| CCN(CC)CCNC(=O)c1cc(Br)c(N)cc1OC | 78.1% |
| COc1cc2c(cc1O)[C@@H](Cc1ccc(O)c(Oc3ccc(C[C@@H]4c5cc(OC)c(OC)cc5CCN4C)cc3)c1)N(C)CC2 | 9.91% |
| O=C(Nc1ncc([N+](=O)[O-])s1)c1ccccc1O | 24.6% |
| O=C1CN2Cc3c(ccc(Cl)c3Cl)N=C2N1 | 90.7% |
| COc1ccc2c(c1)c(CC(=O)OCC(=O)O)c(C)n2C(=O)c1ccc(Cl)cc1 | 91.8% |

Study 4
Cell line: mouse MPNST tumor cells
Technique: high-content nuclear imaging
Measured: cell number
Tested at: 10 µM
Time: 12 h
Notes: mean of 2 replicates
Relative to: plate mean
Direction: higher = more cells
| SMILES | nuclei count |
| --- | --- |
| N#Cc1cc2[nH]c(=O)c(=O)[nH]c2cc1[N+](=O)[O-] | 1.36 z-score |
| O=C(Nc1nncs1)c1cccnc1 | 0.505 z-score |
| CCN(CC)CCNc1ccc(CO)c2sc3ccccc3c(=O)c12 | -5.02 z-score |
| CNS(=O)(=O)Cc1ccc2[nH]cc(CCN(C)C)c2c1 | 0.0565 z-score and 2.08 z-score and 3.9 z-score |
| Cn1cccc1/C=C1\C(=O)NC(=O)c2ccccc21 | -2.52 z-score |
| COc1cc(C=Cc2ccc(OC)cc2OC)cc(OC)c1 | -3.92 z-score |
| NCCCCCCNS(=O)(=O)c1cccc2c(Cl)cccc12 | 1.43 z-score |
| CC(C)NC(=O)Cn1c(-c2ccc(F)c(Cl)c2)nc2ncc(OCCCN3CCOCC3)cc2c1=O | -0.0938 z-score |

A few entries again (study 1):
| target | remaining binding [%] |
| --- | --- |
| AXL (Homo sapiens, UniProt P30530) | 93 |
| PAK4 (Homo sapiens, UniProt O96013) | 100 |
| HUNK (Homo sapiens, UniProt P57058) | 68 |
| MAP2K5 (Homo sapiens, UniProt Q13163) | 83 |
| MAP3K9 (Homo sapiens, UniProt P80192) | 100 |
